# Measured values of several laboratories.
# The chains behind the UniProt entries cited, without tags or fusion partners. Where a name states a change or a piece, a line headed by the entry shows the natural chain unless it says otherwise. Residues count along the entry.
# UniProt P03372, whole entry: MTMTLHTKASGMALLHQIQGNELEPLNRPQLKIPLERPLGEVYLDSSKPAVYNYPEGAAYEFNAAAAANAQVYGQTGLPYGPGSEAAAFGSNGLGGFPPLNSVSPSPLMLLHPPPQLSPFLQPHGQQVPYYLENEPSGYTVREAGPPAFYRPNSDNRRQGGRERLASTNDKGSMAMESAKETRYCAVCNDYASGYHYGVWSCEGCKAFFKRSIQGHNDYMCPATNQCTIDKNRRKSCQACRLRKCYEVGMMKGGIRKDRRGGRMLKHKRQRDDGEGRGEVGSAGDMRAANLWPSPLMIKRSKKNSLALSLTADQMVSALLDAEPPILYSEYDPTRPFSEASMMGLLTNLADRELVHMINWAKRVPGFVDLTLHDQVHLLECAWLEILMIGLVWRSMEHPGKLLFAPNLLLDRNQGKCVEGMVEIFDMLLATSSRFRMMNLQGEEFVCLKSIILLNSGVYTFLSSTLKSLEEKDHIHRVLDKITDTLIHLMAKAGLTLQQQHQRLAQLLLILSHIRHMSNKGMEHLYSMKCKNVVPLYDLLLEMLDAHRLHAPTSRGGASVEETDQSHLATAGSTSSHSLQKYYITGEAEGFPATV
# UniProt P31421, 19-872 limits assumed: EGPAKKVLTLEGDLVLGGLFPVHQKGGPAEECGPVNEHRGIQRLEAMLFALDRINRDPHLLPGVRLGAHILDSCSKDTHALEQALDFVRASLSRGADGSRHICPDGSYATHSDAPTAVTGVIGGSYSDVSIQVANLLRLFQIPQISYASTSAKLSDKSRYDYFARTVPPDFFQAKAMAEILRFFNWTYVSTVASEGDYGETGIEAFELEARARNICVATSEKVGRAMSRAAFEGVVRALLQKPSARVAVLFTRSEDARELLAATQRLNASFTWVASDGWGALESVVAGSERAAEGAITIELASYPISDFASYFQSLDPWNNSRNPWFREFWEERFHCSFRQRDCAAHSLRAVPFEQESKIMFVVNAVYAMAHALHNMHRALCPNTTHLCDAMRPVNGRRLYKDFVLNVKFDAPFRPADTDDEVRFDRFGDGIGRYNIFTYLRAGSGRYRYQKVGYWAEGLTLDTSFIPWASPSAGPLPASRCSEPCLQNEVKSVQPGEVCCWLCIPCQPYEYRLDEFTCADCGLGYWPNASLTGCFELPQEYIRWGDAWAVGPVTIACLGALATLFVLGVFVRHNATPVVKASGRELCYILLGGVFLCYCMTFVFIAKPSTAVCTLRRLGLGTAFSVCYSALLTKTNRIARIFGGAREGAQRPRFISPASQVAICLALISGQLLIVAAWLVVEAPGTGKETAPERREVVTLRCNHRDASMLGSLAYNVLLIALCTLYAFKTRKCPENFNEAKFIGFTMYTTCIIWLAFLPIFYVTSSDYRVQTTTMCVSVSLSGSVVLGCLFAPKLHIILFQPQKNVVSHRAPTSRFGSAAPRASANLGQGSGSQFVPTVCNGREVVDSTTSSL
# UniProt Q9NRM7, whole entry: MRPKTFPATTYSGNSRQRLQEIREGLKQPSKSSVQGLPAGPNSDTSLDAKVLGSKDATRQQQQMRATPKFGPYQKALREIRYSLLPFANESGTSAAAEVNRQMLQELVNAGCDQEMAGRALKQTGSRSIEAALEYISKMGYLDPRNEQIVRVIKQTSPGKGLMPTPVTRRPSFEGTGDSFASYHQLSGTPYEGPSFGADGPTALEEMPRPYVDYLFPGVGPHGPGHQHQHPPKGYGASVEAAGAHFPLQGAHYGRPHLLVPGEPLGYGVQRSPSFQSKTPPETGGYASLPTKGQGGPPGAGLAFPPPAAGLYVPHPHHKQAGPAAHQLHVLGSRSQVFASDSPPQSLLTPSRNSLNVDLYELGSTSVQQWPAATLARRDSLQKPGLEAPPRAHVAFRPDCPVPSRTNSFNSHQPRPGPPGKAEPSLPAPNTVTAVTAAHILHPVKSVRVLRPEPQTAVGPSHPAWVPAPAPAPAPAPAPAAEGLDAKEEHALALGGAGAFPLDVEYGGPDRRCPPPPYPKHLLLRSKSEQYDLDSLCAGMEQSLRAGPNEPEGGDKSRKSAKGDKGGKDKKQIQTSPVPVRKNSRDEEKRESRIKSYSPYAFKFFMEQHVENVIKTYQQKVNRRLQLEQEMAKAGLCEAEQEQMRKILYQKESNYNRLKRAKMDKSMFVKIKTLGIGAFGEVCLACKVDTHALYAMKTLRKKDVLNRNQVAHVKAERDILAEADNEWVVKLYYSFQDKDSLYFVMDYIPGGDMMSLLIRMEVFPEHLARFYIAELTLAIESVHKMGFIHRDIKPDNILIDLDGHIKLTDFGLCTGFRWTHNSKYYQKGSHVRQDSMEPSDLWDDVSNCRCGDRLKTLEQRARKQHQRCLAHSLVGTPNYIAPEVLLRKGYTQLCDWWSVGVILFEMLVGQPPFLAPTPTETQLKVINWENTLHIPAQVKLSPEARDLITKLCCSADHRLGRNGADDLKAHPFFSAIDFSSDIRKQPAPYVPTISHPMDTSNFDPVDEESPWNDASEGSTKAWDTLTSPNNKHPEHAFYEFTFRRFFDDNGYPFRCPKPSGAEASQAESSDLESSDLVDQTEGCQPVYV
# UniProt P43358, whole entry, looked up: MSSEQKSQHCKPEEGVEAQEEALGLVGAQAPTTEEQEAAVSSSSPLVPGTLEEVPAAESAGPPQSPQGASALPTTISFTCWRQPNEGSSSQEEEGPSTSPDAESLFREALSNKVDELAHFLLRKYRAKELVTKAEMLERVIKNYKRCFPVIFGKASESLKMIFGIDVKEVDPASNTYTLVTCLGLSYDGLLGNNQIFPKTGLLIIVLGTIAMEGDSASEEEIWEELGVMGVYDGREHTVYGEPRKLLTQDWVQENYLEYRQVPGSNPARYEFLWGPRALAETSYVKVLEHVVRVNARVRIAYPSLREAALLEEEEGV
# UniProt P05067, 672-713 limits assumed: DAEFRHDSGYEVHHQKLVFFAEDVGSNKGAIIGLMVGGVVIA
# UniProt O88693, whole entry: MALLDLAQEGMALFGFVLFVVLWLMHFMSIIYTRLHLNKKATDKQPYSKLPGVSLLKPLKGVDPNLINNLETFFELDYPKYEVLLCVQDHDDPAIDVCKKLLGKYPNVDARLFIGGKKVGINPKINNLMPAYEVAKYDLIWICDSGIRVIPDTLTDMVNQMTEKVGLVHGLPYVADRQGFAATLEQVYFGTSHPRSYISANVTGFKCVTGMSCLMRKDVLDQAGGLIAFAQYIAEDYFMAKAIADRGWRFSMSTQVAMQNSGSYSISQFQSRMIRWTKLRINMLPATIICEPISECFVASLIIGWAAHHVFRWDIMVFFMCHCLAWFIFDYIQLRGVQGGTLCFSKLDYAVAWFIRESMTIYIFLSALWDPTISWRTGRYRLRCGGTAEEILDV
# UniProt O00748, 27-559 limits assumed: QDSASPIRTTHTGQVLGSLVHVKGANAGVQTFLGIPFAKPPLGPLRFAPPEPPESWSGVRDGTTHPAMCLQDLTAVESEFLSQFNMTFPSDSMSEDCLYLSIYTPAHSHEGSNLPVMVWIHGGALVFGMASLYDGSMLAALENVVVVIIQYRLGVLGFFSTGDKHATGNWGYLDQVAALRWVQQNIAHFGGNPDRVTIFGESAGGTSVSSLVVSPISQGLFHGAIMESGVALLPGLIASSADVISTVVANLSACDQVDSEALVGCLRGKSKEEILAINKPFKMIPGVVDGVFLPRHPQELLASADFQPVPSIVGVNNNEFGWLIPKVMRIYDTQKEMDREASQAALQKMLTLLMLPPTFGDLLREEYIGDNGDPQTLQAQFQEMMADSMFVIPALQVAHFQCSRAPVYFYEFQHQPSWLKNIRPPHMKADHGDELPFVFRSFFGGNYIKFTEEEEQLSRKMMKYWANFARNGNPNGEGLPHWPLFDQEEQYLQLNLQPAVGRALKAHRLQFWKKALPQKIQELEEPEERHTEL
# UniProt P14902, whole entry: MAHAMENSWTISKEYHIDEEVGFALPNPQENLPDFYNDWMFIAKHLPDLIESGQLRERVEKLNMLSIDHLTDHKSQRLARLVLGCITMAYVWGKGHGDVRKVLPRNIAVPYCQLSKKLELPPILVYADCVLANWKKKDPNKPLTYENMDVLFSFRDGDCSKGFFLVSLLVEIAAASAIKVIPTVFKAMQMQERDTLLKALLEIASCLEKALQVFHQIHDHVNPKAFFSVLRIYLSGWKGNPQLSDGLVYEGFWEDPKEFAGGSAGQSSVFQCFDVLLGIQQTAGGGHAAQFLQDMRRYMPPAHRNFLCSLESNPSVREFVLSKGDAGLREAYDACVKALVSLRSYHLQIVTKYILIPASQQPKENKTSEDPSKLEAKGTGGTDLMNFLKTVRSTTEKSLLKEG
# UniProt Q13304, whole entry: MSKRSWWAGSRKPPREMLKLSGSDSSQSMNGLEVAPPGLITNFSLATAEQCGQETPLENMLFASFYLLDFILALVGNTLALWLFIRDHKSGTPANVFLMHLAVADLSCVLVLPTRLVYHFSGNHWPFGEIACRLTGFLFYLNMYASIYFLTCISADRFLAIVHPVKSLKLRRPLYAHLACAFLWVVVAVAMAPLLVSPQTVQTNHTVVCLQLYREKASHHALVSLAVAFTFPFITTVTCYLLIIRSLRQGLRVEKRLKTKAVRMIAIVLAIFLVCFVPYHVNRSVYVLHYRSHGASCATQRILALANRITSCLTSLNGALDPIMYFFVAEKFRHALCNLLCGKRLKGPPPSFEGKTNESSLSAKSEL
# UniProt Q9UBN7, whole entry: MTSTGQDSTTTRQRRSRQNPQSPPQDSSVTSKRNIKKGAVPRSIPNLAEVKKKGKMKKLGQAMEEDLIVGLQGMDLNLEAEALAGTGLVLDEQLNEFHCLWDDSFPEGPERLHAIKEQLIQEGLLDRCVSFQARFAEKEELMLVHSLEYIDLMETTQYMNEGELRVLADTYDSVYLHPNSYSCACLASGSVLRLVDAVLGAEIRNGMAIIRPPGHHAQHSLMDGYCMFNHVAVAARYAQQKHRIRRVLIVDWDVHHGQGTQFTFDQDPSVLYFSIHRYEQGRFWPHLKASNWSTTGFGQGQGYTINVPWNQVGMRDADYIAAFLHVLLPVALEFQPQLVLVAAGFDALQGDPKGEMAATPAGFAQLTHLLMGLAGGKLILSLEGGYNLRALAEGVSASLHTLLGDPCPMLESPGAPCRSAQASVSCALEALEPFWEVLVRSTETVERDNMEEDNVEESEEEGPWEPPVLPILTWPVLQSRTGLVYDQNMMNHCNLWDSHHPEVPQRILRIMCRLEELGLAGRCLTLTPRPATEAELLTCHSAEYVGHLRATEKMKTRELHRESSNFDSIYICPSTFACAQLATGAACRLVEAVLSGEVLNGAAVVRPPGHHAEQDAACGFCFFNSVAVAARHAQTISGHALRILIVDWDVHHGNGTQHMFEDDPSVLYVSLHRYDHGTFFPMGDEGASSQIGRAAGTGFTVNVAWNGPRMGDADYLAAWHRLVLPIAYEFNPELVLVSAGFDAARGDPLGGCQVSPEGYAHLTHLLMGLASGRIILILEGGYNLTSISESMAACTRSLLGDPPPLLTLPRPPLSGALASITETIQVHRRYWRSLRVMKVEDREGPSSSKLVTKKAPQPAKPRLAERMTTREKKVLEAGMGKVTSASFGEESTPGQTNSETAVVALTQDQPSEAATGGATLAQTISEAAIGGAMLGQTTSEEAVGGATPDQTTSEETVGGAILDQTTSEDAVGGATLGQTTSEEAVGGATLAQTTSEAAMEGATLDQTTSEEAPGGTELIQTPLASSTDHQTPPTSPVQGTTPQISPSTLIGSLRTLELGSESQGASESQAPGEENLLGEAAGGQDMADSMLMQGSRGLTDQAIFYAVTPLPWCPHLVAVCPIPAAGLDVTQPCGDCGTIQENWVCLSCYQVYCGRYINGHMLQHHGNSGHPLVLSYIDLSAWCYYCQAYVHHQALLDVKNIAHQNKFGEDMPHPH
# UniProt F6S984, 25-599 limits assumed: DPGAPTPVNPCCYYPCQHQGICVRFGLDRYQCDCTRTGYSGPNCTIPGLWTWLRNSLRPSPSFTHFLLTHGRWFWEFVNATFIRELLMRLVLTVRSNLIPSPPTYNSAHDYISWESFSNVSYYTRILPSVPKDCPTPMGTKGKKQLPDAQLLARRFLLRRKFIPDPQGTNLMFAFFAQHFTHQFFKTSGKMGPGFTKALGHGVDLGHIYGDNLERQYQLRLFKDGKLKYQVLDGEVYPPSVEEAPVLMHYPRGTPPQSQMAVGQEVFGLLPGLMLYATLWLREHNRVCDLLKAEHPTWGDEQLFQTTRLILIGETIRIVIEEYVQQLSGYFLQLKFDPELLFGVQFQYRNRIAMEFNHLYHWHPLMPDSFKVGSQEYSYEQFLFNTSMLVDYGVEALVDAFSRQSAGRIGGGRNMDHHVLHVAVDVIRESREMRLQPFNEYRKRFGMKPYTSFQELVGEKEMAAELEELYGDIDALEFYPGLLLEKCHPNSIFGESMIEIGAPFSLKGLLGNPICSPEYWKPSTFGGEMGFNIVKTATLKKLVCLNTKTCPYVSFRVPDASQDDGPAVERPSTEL
# Lines come from different studies, so protocols differ. ± gives the spread as reported.
# ESR1: Estrogen receptor (ESR1, Homo sapiens, UniProt P03372)
# Grm2: Metabotropic glutamate receptor 2 (Grm2, Rattus norvegicus, UniProt P31421)
Compound,target,assay,test system,conditions,IC50 [nM]
C[C@H](NC(=O)c1cc(C(=O)O)cc([C@H]2CCN[C@@H]2C(=O)O)c1)C(=O)O,AMPA receptor (rat),"binding, radioligand binding",rat cortical synaptosomes,added: [3H]AMPA,32000
COc1ccc(NC(=O)CSc2nc(-c3ccc(C)cc3)cc(C(F)(F)F)c2C#N)cc1,"TAAR1 (Homo sapiens, UniProt Q96RJ0)",,,,> 10000
Clc1ccc(C2(c3ccc(-c4cccnc4)cc3)CCNCC2)cc1,"LATS2 (Homo sapiens, UniProt Q9NRM7)","kinase activity, inhibitor, radiometric HotSpot",,added: ATP 10 µM,> 10000
O=C(Nc1cccc(-c2nc3ccccc3s2)c1)c1ccc(N2CCOCC2)cc1,"Tyrosine-protein kinase SYK, with FCER1G (SYK, Homo sapiens, UniProt P43405)","protein binding, inhibitor, TR-FRET",,,> 100000
CC(C)n1nnc(-c2cc(O)cc(Nc3ncnn4ccc(CN5CCC(N)CC5)c34)c2)n1,"AAK1 (Homo sapiens, UniProt Q2M2I8)",,,,3.8
COC(=O)[C@@H]1C(c2nc3ccccc3s2)=Cc2cc3c(cc2[C@H]1c1cc(OC)c(OC)c(OC)c1)OCO3,"Tubulin alpha/beta heterodimer (Leishmania infantum, UniProt A0A381MCS3+A4HTR0)","tubulin polymerization, inhibitor",,"37 °C, added: tubulin 1.2 mg/mL",> 20000
CC[C@H](C)[C@@H]1NC(=O)[C@H](Cc2ccc(O)cc2)NC(=O)CCSCC(=O)CSCCNC(=O)[C@H](Cc2c[nH]cn2)NC(=O)[C@H](Cc2ccc(O)cc2)NC(=O)[C@H](CC(=O)O)NC(=O)[C@H](Cc2ccc(O)cc2)NC(=O)[C@H](CC(C)C)NC(=O)[C@H](CCCNC(=N)N)NC1=O,"Melanoma-associated antigen 4, MAGE homology domain (Homo sapiens, UniProt P43358)","peptide binding, inhibitor, TR-FRET",,added: Alexa647-MTP-1 peptide,317 ± 140
O=C(/C=C/c1ccc(O)c(OC(F)(F)F)c1)C1=C(/C=C/c2ccc(O)c(OC(F)(F)F)c2)OCCC1,"Amyloid-beta precursor protein, Aβ aggregates (APP, Homo sapiens, UniProt P05067)","binding, thioflavin T competition",,,1230
CNC(=O)[C@@H](NC(=O)[C@@H]1CN(C(=O)c2cnn(Cc3ccccc3)c2)CC12CN(C(=O)[C@H]1CC1(C)C)C2)[C@@H](C)OCCC1CCCCC1,"Cyclin-dependent kinase 2/cyclin E1 (Homo sapiens, UniProt P24864+P24941)","kinase activity, inhibitor, ADP-Glo",,,130
N#Cc1cnc(Nc2nc3ccccc3o2)nc1-c1ccc2ccccc2c1,"Grm5 (Rattus norvegicus, UniProt P31424)","calcium mobilization, negative allosteric modulator",,added: glutamate EC80,> 10000
CC(=NNC(=N)N)c1ccc2[nH]c(C(=O)Nc3ccc4cc[nH]c4c3)cc2c1,"CHEK1 (Homo sapiens, UniProt O14757)","kinase activity, inhibitor, IMAP fluorescence polarization",,,34000
Cc1ccc(-n2nc3c(=O)[nH]nc(N)c3c2-c2oc3ccc(C)cc3c2C)cc1,"FGFR1 (Homo sapiens, UniProt P11362)","kinase activity, inhibitor, ELISA",,,7.4 ± 1
O=C(CN1C(=O)C=CC1=O)N1CCN(c2cc(N3CCCC3)nc(N3CCCC3)n2)CC1,"Caspase-1 (CASP1, Homo sapiens, UniProt P29466)",inhibitor,,60 min preincubation,42 ± 21
O=C(CSc1cccc(C(F)(F)F)c1)Nc1ccc2nc(SCC(=O)NC3CC3)sc2c1,ESR1,"reporter gene, antagonist",HEC-1 transfected ERα luciferase reporter,,20000 to 50000
O=C(Nc1cccc(-c2nc3ccccc3s2)c1)c1ccc([N+](=O)[O-])cc1,"Moesin, with CD44 (Homo sapiens, UniProt P26038)","MSN-CD44 interaction, inhibitor, TR-FRET",,added: CD44,> 100000
OC[C@H]1[C@@H](O)[C@H](O)[C@@H](O)CN1CCCCCOCCc1ccsc1,"Ugcg (Mus musculus, UniProt O88693)","inhibitor, C6-NBD-ceramide in situ",RAW264.7,,120
COc1ccc2[nH]cc(CCc3ccc(OS(C)(=O)=O)cc3)c2c1,"Amyloid-beta precursor protein, amyloid-beta peptide (APP, Homo sapiens, UniProt P05067)","Aβ42 oligomerisation, ELISA",,,> 20000
CC(C)CNC(=O)CSc1nc2ccc(NC(=O)CSc3ccc(C(C)C)cc3)cc2s1,ESR1,"reporter gene, antagonist",HEC-1 transfected ERα luciferase reporter,,> 50000
Cc1nc(N)sc1-c1csc(Nc2ccc(N(C)C)cc2)n1,"Protein-lysine 6-oxidase (Homo sapiens, UniProt P28300)","LOX activity, inhibitor",MDA-MB-231,,10000
CN1CC[C@H](c2c(O)cc(O)c3c(=O)cc(-c4ccccc4F)oc23)[C@H](O)C1,"Cyclin-dependent kinase 2, part with cyclin A (CDK2, Homo sapiens, UniProt P24941)",,,ATP at Km,350
O=C(c1ccc(O)c(Br)c1)N1Cc2ccccc2C1,"HSP90AA1 (Homo sapiens, UniProt P07900)","binding, fluorescence polarization",,added: FITC-geldanamycin tracer,2730 ± 190
O=C(O)c1cc(C(=O)N[C@@H](Cc2cnc[nH]2)C(=O)O)cc([C@H]2CCN[C@@H]2C(=O)O)c1,kainate receptor (rat),"binding, radioligand binding",rat cortical synaptosomes,added: [3H]kainate,10000 to 50000
COc1cc2c(cc1OC)C(=O)C(=Cc1ccccc1OC(=O)N(C)C)C2,"Cocaine esterase (CES2, Homo sapiens, UniProt O00748)",inhibitor,,"3 min preincubation, added: fluorescein diacetate",11.5 ± 2.47
Oc1cccc(/C=C/c2c[nH]c3ccc(F)cc23)c1,"IDO1 (Homo sapiens, UniProt P14902)","enzyme activity, inhibitor",,,10000
O=C1Nc2cccc(C#CC3(O)CCNCC3)c2/C1=C/c1cc2ccccc2[nH]1,"TAOK3 (Homo sapiens, UniProt Q9H2K8)","enzyme activity, TR-FRET HTRF KinEASE",,,42
O=C(CCCCCn1c(=S)[nH]c2ccccc2c1=O)N1CCN(c2ccc(C(F)(F)F)cc2)CC1,ESR1,"reporter gene, antagonist",HEC-1 cells transfected with ERα,added: estradiol 1 nM,4400
CC(=O)N(CC#Cc1cccc(C(N)=O)c1)C[C@H]1C[C@@H](n2ccc3c(Cl)ncnc32)[C@H](O)[C@@H]1O,"PRMT1 (Homo sapiens, UniProt Q99873)","enzyme activity, inhibitor, SAHH-coupled fluorescence",,,> 100000
COCCCNc1nc(-c2ccc(-c3ccccc3)cc2)cs1,"ALK (Homo sapiens, UniProt Q9UM73)",ELISA,,,27000
O=C(O)c1cc(C(=O)N[C@@H](CS)C(=O)O)cc([C@H]2CCN[C@@H]2C(=O)O)c1,AMPA receptor (rat),"binding, radioligand binding",rat cortical synaptosomes,added: [3H]AMPA,10000 to 50000
CC(=NNC(=N)N)c1ccc(NC(=O)c2c[nH]c3ccccc23)cc1,"CHEK2 (Homo sapiens, UniProt O96017)","kinase activity, inhibitor, IMAP fluorescence polarisation",,60 min,1.36 ± 0.71
COc1ccc(C(NS(=O)(=O)c2cccs2)C(=O)Nc2ccc(Cl)cc2)cc1 (centres unmarked),"Uracil nucleotide/cysteinyl leukotriene receptor, long isoform (GPR17, Homo sapiens, UniProt Q13304)","calcium mobilization, antagonist",1321-N1,,14000 ± 760
CN1CCC[C@@H]1C(=O)N[C@@H](Cc1ccccc1)B(O)O,"20S proteasome, β1 subunit (Plasmodium falciparum, UniProt Q8I0U7+Q8I6T3)","enzyme activity, inhibitor",,added: Ac-nLPnLD-AMC,> 10000
C=CC(=O)Nc1cc(Nc2ncnc(Nc3ccccc3F)n2)c(OC)cc1N(C)CCN(C)C,"EGFR (Homo sapiens, UniProt P00533)","EGFR phosphorylation, inhibitor, MSD, refers to: phospho-EGFR",A-431,,17
Cc1n[nH]c(C)c1CCOC(=O)c1cccc2c1oc(=O)n2C,"CD28, with CD80 (Homo sapiens, UniProt P10747)","B7-1 binding, inhibitor, competitive ELISA",,,7800 ± 4800
CNc1ccc(Br)cc1-c1nc2ccccc2[nH]c1=O,"Protein diaphanous homolog 1, FH2 domain (Diaph1, Mus musculus, UniProt O08808)","actin assembly, inhibitor, pyrene-actin polymerization",,,> 50000
O=C(NO)c1c(F)c(F)c(F)c(F)c1F,"HDAC6 (Homo sapiens, UniProt Q9UBN7)","enzyme activity, inhibitor, electrophoretic mobility shift",,added: FAM-RHKK(Ac)-NH2 1 µM,7440
Cc1cc(Nc2ncc3c(n2)N(C)C(=O)N(c2cc(NC(=O)c4cccc(C(F)(F)F)c4)ccc2C)C3)n(C)n1,"FGFR4 (Homo sapiens, UniProt P22455)","enzyme activity, inhibitor, radiometric kinase",,,< 1
Cc1cc(-n2cc(C(N)=O)c(=O)c3cc(CCc4cnc(C)nc4)ccc32)sn1,Grm2,"calcium mobilization, negative allosteric modulator",,,414
NS(=O)(=O)c1ccc(Cc2c(-c3ccc(F)c(C4CCCCC4)c3)nn(-c3nc(C(=O)O)cs3)c2CC2CC2)cc1F,"LDHA (Homo sapiens, UniProt P00338)","enzyme activity, inhibitor",,,40 ± 10
C[C@H](Nc1nc(N[C@H](C)C2CC2)nc(-c2cccc(C(F)(F)F)n2)n1)C1CC1,"IDH1 (Homo sapiens, UniProt O75874, R132H)","enzyme activity, inhibitor",,mutant heterodimer reverse reaction,14
O=C(OC(C(F)(F)F)C(F)(F)F)N1Cc2cccc(Br)c2C1,"ABHD6 (Homo sapiens, UniProt Q9BV23)","inhibitor, fluorescence",,,115 ± 1.9
NC(=O)c1cn(-c2ccc(F)cc2)c2ccc(COc3ccc(Cl)nc3)cc2c1=O,Grm2,"calcium mobilization, negative allosteric modulator",,,193
COc1ccc2nc3ccccc3c(SCCCN3C(=O)c4ccccc4C3=O)c2c1,"DYRK2 (Homo sapiens, UniProt Q92630)",inhibitor,,added: Woodtide peptide,1300
COc1ccc(-c2nc(C(F)(F)F)nn2-c2ccc(OC)nc2)cc1,"Prostaglandin G/H synthase 1 (Macaca mulatta, UniProt F6S984)","thromboxane B2 production, inhibitor, enzyme immunoassay",monkey whole blood,,5.1 ± 1.5

# For quick reference, copied from above:
Compound,target,assay,test system,conditions,IC50 [nM]
C[C@H](Nc1nc(N[C@H](C)C2CC2)nc(-c2cccc(C(F)(F)F)n2)n1)C1CC1,"IDH1 (Homo sapiens, UniProt O75874, R132H)","enzyme activity, inhibitor",,mutant heterodimer reverse reaction,14
O=C(OC(C(F)(F)F)C(F)(F)F)N1Cc2cccc(Br)c2C1,"ABHD6 (Homo sapiens, UniProt Q9BV23)","inhibitor, fluorescence",,,115 ± 1.9
NC(=O)c1cn(-c2ccc(F)cc2)c2ccc(COc3ccc(Cl)nc3)cc2c1=O,Grm2,"calcium mobilization, negative allosteric modulator",,,193
